Published values gathered from unrelated publications.
Every numbered part comes from another study and shows a few of its results, in no order.

Set 1
Target: RING finger protein unkempt homolog, zinc fingers 1-6, GST-SBP tag (UNK, Homo sapiens, UniProt Q9C0B0, residues 30-357)
UniProt Q9C0B0, sequence (30-357, looked up): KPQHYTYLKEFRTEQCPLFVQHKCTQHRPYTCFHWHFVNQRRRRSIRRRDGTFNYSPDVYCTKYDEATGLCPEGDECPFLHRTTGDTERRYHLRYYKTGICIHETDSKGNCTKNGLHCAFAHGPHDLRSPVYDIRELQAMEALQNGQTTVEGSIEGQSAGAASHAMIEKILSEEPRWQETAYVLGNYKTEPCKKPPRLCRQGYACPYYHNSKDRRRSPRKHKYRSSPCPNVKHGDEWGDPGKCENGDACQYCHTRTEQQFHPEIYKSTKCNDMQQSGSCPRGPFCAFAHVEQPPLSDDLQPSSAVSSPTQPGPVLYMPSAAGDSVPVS
Method: RNA Bind-n-Seq
Molecule type: RNA
Sample: in vitro
Concentration: not given
Setting: RNA with constant flanks, human-mouse chimeric sites, ends assumed
Relative to: input RNA pool
Reading: higher = stronger binding
Constant ends, left off below: GGGAGUUCUACAGUCCGACGAUC … CAACAGAGGAUUGAGCAUCA
For `AAAUCGUGUGUGUCAAAUAUUGAAAGUGCUUUAUCUACACUCCAAUAUGUAAGCAGUAUAGUAGUUUCUUUAGAGAAUAGGUCAGCCAUUGUAAAGUACAAUGCAAGCUUAGUCACUCCA`, the bound/input enrichment was 21.9 ratio.
With `CACAGAGCAGCACCUACCCCCUCCUCCUUUCCACACCUGCAAACUCUUUUGCCUGGGCUGAAUAUUUAGUGUAAUUACAUCUCAGCUUUGAGGGCUCCCUGUGGCAAUUCCCGGAUUAAA` the bound/input enrichment was 1.09 ratio.
`UCUGGUCACACUCGUGUAUAUGGUGUGUGCUUUGUGGACACUUCACUGGGCAAGUUUUUCAUCGGCCAGUUUUCGGAUGAUCGCCAUUGUUCCAGAUUUAGGACGCUAGUGGCUCACUAU` gave a bound/input enrichment of 0.308 ratio.
For `CUGAGGAUACCACUGAAGAGACCUUAAAAGAAUCAUUUGAGGGCUCUCGUUCGGGCAGAAUAGUCACUGAUCGGGAAACUGGUUCUUCCAAAGGGUUUGGUUUUGUAAGACUUCAACGUG`, the bound/input enrichment was 0.298 ratio.
The bound/input enrichment of `AUAGAUGAAAUUGAUGUGGACCAGGAAGGAAUUGCAGAAAUGAUCCUGGAUGAAAAUGCUAUUGCUCAGGUCCCACGCCCUGGCACAUCUUUGAAGCUCCCUGGCACUAAUCAGACAGGA` is reported as 0.258 ratio.
`AGUUCCAAACCACCAUCAGAAAUGAAGAUGAGAUUACCCAGACGAGCCAAAACAGCUAGCACUAGAAAAAGUAAACUUAACCUUGCAGAGUUCCUUAAUGAAGAUACAAGUUAAGAGAGC` has a bound/input enrichment of 2.85 ratio.

Set 2
Target: Histone acetyltransferase KAT6A, winged helix 1, GST fusion (KAT6A, Homo sapiens, UniProt Q92794, residues 1-85)
Method: protein binding microarray
Molecule type: double-stranded DNA, one strand shown
Sample: in vitro
Concentration: not given
Setting: 8-mer, flanks averaged, mean of 2 arrays, mostly near background
Relative to: not given
Reading: higher = stronger binding
Construct (chain): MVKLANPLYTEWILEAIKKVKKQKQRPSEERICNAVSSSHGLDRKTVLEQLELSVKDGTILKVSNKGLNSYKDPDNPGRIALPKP
For `GCAACTCC`, the E-score was 0.179.
With `AGGGCATC` the E-score was -0.132.
`TCGTTAAA` has an E-score of -0.0716.
`TCCCGTAA` gave an E-score of 0.242.
`TAGGTGGA` has an E-score of -0.268.

Set 3
Target: Interferon regulatory factor 5, full length, phosphomimetic (IRF5, Homo sapiens, UniProt Q13568-2, residues 1-514, S451D/S453D/S456D/S462D)
Method: protein-binding microarray
Molecule type: double-stranded DNA, one strand shown
Sample: in vitro
Concentration: 940 nM top
Setting: 60-bp whole probe
Added: salmon DNA 0.4 mg/ml
Relative to: random background probes
Reading: higher = stronger binding
Constant ends, left off below: GCCTAGCAC … GTCTTGATTCGCTTGACGCTGCTG
`TCACACTTCCTTCTGCCACTGTGCTAG` — result for “fitted relative affinity”: 1.54 z-score.
Under “fitted relative affinity”, `GGCTGTTTGGTCCTGAACCTGTGCTAG` is recorded as -0.801 z-score.
`TCCATTTTCTAAATGCCCTGGTGCTAG`: “fitted relative affinity” 0.268 z-score.
For `TTAGAACTGGGGACTGGATGAGTGCTA`, “fitted relative affinity” read -0.221 z-score.
`GACGGTTTCGACCTTCGGGACGTGCTA`: “fitted relative affinity” 6.79 z-score.

Mixed results
`PhoQ, residues 284 288 289 292 302 303 AMDMFI` has a fold induction of 0.815 (PhoP, residues 12 14 15 18 19 LHSVW (Escherichia coli, UniProt P23836); Sort-seq, measured: YFP reporter; E. coli; PhoQ-PhoP variant library, added: 10 µM Mg2+; relative to: high Mg2+ state, higher = stronger signaling).

A few entries again (mixed results):
`PhoQ, residues 284 288 289 292 302 303 AMDMFI` has a fold induction of 0.815 (PhoP, residues 12 14 15 18 19 LHSVW (Escherichia coli, UniProt P23836); Sort-seq, measured: YFP reporter; E. coli; PhoQ-PhoP variant library, added: 10 µM Mg2+; relative to: high Mg2+ state, higher = stronger signaling).
